Assay results from different studies.
Numbered parts are unrelated; each lists some results of a single study. Several values in a cell are separate wells, animals, samples, runs or records.
Chain of UniProt P49137 (whole entry, looked up): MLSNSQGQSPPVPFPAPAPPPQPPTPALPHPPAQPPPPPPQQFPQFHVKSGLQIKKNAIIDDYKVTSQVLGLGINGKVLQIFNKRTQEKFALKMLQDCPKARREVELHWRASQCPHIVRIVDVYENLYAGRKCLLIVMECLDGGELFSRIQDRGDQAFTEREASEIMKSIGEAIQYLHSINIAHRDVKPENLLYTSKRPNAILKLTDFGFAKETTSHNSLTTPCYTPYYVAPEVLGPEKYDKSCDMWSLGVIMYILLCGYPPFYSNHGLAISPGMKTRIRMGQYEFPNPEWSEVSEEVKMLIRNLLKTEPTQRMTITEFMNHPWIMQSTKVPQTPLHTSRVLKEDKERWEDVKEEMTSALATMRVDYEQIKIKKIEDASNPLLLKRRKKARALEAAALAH
Chain of UniProt P36896 (whole entry, looked up): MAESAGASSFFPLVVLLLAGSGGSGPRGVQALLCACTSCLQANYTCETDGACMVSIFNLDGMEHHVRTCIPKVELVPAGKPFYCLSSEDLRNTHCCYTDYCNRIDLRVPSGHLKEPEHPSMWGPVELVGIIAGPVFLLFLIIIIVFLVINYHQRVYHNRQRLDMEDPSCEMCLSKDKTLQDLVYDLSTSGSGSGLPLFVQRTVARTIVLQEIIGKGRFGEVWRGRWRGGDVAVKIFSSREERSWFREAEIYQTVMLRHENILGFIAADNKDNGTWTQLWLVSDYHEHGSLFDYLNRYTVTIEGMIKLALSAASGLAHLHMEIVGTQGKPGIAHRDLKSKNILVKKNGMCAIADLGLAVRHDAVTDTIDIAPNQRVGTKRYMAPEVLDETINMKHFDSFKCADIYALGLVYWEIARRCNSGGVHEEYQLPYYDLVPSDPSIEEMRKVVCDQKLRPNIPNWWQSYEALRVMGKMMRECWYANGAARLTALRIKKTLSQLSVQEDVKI
Chain of UniProt Q15349 (whole entry, looked up): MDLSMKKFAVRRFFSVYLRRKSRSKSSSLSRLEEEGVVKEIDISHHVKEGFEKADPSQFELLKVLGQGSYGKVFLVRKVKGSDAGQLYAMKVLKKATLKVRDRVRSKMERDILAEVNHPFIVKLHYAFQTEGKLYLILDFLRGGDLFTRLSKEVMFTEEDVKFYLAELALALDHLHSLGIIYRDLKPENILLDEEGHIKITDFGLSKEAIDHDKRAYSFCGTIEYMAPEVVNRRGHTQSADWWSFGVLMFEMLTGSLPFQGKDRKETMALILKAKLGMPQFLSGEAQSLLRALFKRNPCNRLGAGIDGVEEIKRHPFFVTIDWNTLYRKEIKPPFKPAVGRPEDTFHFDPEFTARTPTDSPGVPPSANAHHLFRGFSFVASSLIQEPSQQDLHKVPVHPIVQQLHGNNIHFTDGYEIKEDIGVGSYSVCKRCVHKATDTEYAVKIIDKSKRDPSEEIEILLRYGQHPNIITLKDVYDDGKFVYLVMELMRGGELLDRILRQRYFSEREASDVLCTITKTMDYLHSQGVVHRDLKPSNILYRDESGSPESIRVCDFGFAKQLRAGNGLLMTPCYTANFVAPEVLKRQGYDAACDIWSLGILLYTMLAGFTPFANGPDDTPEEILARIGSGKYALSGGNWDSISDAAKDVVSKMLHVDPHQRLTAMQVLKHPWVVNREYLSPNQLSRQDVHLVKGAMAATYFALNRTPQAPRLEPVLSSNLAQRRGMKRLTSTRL
Chain of UniProt Q9UL54 (whole entry, looked up): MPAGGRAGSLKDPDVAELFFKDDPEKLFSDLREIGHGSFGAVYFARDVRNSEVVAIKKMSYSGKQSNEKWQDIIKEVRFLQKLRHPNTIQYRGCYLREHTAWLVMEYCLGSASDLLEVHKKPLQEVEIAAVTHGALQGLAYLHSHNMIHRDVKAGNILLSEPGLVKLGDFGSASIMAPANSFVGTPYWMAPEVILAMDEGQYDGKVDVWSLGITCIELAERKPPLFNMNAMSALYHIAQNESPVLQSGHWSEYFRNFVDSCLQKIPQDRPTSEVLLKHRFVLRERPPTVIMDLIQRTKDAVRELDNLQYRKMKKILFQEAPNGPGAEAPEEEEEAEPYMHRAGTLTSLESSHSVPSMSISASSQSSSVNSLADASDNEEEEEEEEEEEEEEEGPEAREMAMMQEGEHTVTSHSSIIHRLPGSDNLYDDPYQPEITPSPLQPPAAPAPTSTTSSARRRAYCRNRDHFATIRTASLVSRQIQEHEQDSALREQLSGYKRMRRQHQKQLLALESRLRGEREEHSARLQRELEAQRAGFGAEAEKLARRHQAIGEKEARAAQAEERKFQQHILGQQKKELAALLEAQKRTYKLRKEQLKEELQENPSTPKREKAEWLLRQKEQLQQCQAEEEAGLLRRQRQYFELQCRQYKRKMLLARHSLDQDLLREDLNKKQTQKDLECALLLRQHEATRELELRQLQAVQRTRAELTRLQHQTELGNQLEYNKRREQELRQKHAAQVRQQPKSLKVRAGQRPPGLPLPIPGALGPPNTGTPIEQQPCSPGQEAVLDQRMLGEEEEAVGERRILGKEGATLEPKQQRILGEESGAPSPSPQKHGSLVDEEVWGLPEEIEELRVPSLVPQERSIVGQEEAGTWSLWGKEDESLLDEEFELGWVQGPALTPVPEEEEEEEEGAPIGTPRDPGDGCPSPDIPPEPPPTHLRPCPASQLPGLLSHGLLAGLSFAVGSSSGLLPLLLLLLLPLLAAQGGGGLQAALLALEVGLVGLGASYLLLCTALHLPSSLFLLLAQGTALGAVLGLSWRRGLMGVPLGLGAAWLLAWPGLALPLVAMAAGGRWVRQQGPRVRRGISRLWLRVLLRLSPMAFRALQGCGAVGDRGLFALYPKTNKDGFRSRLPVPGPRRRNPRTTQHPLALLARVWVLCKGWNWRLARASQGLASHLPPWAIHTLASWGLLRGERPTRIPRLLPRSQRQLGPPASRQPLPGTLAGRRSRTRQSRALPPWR
Chain of UniProt Q99558 (whole entry, looked up): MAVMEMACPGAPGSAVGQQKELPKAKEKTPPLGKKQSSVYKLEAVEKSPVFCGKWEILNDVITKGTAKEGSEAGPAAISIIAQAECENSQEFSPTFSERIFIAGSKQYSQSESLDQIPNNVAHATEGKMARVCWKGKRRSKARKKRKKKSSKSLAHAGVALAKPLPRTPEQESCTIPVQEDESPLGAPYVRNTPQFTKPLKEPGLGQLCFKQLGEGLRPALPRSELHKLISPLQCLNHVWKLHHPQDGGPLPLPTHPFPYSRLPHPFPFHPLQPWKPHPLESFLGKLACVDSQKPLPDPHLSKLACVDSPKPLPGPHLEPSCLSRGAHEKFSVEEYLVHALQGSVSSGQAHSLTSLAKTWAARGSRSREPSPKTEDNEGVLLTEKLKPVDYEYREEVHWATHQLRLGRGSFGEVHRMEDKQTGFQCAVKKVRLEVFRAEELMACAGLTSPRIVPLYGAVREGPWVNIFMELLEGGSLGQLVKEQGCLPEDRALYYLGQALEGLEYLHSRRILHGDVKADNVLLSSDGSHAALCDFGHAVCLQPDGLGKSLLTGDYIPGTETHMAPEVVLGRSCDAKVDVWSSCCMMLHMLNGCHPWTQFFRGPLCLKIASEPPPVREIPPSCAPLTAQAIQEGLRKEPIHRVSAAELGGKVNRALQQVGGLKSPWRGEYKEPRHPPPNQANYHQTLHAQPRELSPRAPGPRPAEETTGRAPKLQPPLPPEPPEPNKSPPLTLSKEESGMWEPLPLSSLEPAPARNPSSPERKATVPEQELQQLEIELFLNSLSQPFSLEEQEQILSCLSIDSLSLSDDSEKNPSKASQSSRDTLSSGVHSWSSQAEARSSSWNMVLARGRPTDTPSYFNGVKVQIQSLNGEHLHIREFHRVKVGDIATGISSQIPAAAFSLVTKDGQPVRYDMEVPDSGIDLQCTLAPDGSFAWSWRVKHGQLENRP
Chain of UniProt Q9HC98 (whole entry, looked up): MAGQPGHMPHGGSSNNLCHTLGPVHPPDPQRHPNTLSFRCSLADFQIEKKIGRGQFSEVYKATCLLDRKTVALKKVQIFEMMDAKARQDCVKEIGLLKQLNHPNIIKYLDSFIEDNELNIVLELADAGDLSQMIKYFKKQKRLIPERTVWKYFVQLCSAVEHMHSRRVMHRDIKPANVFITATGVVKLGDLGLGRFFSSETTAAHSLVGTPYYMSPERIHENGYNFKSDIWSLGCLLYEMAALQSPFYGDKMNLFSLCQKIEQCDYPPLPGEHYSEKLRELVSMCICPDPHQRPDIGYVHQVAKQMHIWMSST
Chain of UniProt P49190 (whole entry, looked up): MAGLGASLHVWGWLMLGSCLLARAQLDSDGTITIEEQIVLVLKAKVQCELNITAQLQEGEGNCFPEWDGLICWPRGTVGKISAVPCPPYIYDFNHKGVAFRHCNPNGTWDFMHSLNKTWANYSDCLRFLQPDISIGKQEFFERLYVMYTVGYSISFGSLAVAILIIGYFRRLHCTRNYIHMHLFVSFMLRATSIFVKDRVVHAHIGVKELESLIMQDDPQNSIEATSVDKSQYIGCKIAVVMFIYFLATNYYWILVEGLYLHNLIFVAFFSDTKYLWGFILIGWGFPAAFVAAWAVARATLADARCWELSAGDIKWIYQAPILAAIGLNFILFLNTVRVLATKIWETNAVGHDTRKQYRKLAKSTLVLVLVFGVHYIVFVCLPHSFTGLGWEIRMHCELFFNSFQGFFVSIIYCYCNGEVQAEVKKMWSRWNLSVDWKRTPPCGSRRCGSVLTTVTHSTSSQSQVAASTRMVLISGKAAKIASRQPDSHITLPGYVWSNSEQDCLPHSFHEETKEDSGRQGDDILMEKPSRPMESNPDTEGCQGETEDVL

Series 1
Cell line: mouse MPNST tumor cells
Technique: high-content immunofluorescence imaging
Measured: nuclear SOX9
Concentration: 10 µM
Time: 12 h
Notes: mean of 2 replicates
Baseline: DMSO control
Direction: higher = more nuclear SOX9
| Compound | nuclear SOX9 intensity |
| --- | --- |
| CC(C)c1ccc(CC(=O)N2CCCC(c3cccc(OC(C)(C)C(=O)O)c3)C2)cc1 (stereo not drawn) | 105 % of DMSO |
| O=c1cc(N2CCN(c3cccc(C(F)(F)F)c3)CC2)[nH]c(=O)n1C1CCCCC1 | 134 % of DMSO |
| O=C1Nc2ccc(Cl)cc2[C@@](C#CC2CC2)(C(F)(F)F)O1 | 127 % of DMSO and 123 % of DMSO |

Series 2
SMILES: CC(C)(C(=O)O)[C@H](NC(=O)Cc1cccc(I)c1)c1ccc2oc(=O)[nH]c2c1
Cell line: A375
Technique: Incucyte 3D growth
Concentration: 30 µM
Direction: higher = more growth
| conditions | spheroid area |
| --- | --- |
| 354.52 h | 1.7e+08 a.u. and 1.64e+08 a.u. and 1.94e+08 a.u. and 1.84e+08 a.u. and 1.61e+08 a.u. |
| 42 h | 2.04e+07 a.u. and 1.31e+07 a.u. and 2.09e+07 a.u. and 2.51e+07 a.u. and 1.02e+07 a.u. and 2.03e+07 a.u. |
| 24.52 h | 1.43e+07 a.u. and 1.54e+07 a.u. and 1.06e+07 a.u. and 1.66e+07 a.u. and 1.24e+07 a.u. and 1.13e+07 a.u. |

Series 3
Species: human
Sample: microsomes or S9
Concentration: 2 µM
Time: 0.5 h
| SMILES | remaining compound [%] |
| --- | --- |
| CCOC(=O)c1c(NC(=O)c2cc(OC)c(OC)c(OC)c2)sc(C)c1-c1ccc(OC)c(OC)c1 | 0.521 |
| COc1cc(OC)nc(OC(C(=O)N2CCOCC2)C(C)C)n1 (stereo not drawn) | 97.4 |
| COC(=O)c1ccc(/C=C(\COc2cccc3ccccc23)CN(CCCN(C)C)C(=O)OC(C)(C)C)cc1 | 45.7 |

Series 4
Cell line: A-375
Concentration: 100 µM
Time: 18 h
| SMILES | viability |
| --- | --- |
| CCCOc1ccc(C(=O)OCCN(CC)CC)cc1N | 85.2% |
| CC[C@@H](CO)NCCN[C@@H](CC)CO | 88.3% |
| CCC[C@@H]1C[C@@H](C(=O)N[C@@H]([C@H]2O[C@H](SC)[C@H](O)[C@@H](O)[C@H]2O)[C@@H](C)O)N(C)C1 | 95.1% and 92.6% |
| Cn1cnc2c1c(=O)[nH]c(=O)n2C | 97.4% |
| O[C@H]1[C@H](O)[C@@H](O)[C@H](O)[C@@H](O)[C@H]1O | 108% |

Series 5
Structure (SMILES): O=C(NC[C@@H]1[C@H]2CN(C(=O)OCc3cc(C(F)(F)F)cc(C(F)(F)F)c3)C[C@@H]12)c1ccc2[nH]nnc2c1
Observed: cell-free assay
Technique: competition with immobilised ligand
Concentration: 1 µM
| target | remaining binding [%] |
| --- | --- |
| RIOK1 (Homo sapiens, UniProt Q9BRS2) | 69 |
| TESK1 (Homo sapiens, UniProt Q15569) | 79 |
| PLK4 (Homo sapiens, UniProt O00444) | 82 |
| TGFBR1 (Homo sapiens, UniProt P36897) | 97 |
| FGR (Homo sapiens, UniProt P09769) | 88 |

Series 6
Compound: CC(C)n1cnc(-c2ccc(F)cc2)c1-c1ncc(C(=O)Nc2ccc(N3CCN(C)CC3)cc2)[nH]1
Technique: Phase 2a trial
Species: idiopathic pulmonary fibrosis patients
| assay | conditions | patients with adverse events [%] |
| --- | --- | --- |
| measured: eye disorders (SOC) | 60 mg once daily, grade 3 maximum intensity | 0 |
| measured: muscular weakness | dose not given, grade 4 maximum intensity, all arms | 0 |
| measured: blood alkaline phosphatase increased | dose not given, grade 5 maximum intensity, all arms | 0 |
| measured: vision blurred | dose not given, grade 2 maximum intensity, all arms | 0 |
| measured: blood bilirubin increased | 60 mg once daily, grade 4 maximum intensity | 0 |

Series 7
Structure (SMILES): COc1cc2c(N3CCN(C(=O)Nc4ccc(OC(C)C)cc4)CC3)ncnc2cc1OCCCN1CCCCC1
Observed: enzyme activity
Mode: inhibitor
Concentration: 0.5 µM
Baseline: control
| target | remaining activity [%] |
| --- | --- |
| JAK3 (Homo sapiens, UniProt P52333) | 99.8 |
| RPS6KA2 (Homo sapiens, UniProt Q15349) | 98.6 |
| GSK3B (Homo sapiens, UniProt P49841) | 98.1 |
| NEK6 (Homo sapiens, UniProt Q9HC98) | 87.4 |
| MAPKAPK2 (Homo sapiens, UniProt P49137) | 100 |
| TAOK2 (Homo sapiens, UniProt Q9UL54) | 102 |
| ARAF (Homo sapiens, UniProt P10398) | 103 |
| MAPK3 (Homo sapiens, UniProt P27361) | 106 |
| NEK1 (Homo sapiens, UniProt Q96PY6) | 119 |
| MAP3K5 (Homo sapiens, UniProt Q99683) | 96.6 |
| MST1R (Homo sapiens, UniProt Q04912) | 99.2 |
| TBK1 (Homo sapiens, UniProt Q9UHD2) | 97.2 |
| TEK (Homo sapiens, UniProt Q02763) | 99.6 |
| MAP3K14 (Homo sapiens, UniProt Q99558) | 98.6 |
| MAP2K2 (Homo sapiens, UniProt P36507) | 116 |
| ACVR1B (Homo sapiens, UniProt P36896) | 101 |
| CSNK1G2 (Homo sapiens, UniProt P78368) | 95.5 |
| WEE1 (Homo sapiens, UniProt P30291) | 97.5 |
| FGFR3 (Homo sapiens, UniProt P22607) | 93.2 |
| EPHA3 (Homo sapiens, UniProt P29320) | 94.7 |
| FRK (Homo sapiens, UniProt P42685) | 101 |
| FGFR1 (Homo sapiens, UniProt P11362) | 101 |
| ULK2 (Homo sapiens, UniProt Q8IYT8) | 100 |

Other studies, line by line
| SMILES | target | assay | conditions | how to read | endpoint | result |
| --- | --- | --- | --- | --- | --- | --- |
| N=C(N)NC(=O)c1cnn(-c2cccc3ncccc23)c1C1CC1 | PTH2R (Homo sapiens, UniProt P49190) | β-arrestin recruitment, agonist, PRESTO-Tango | 10 µM | baseline: untreated | fold over basal | 1.13 |
